Published values pooled from the literature.
Protocols differ between the studies behind these lines. ± gives the spread as reported.
Cell line: K562

The growth percent of `CCCCN1CCN(c2ccc3[nH]c(-c4ccc5[nH]c(-c6cc(OC)c(OC)c(OC)c6)nc5c4)nc3c2)CC1` is reported as 30.8% (SRB; 10 µM, 48 h).
For `Cc1n[nH]c(C)c1CSc1ccc(O)cc1`, the selectivity index was 1.4 (cytotoxicity; relative to: IC50 HEK293 over IC50 K562).
The cell growth of `Cc1n[nH]c2nc(-c3ccc(Cl)cc3)c3c(NC(=O)c4ccccc4)nnc-3n12` is reported as 90.8% (SRB; 10 µM, NCI60 single-dose screen; relative to: untreated).
The growth percent of `CCCN1CCN(c2ccc3nc(-c4ccc5nc(-c6cc(OC)ccc6OC)[nH]c5c4)[nH]c3c2)CC1` is reported as -45.3% (SRB; 10 µM, 48 h).
Under “number of competed kinases”, `O=C(c1ccc(/C=C/c2n[nH]c3ccccc23)cc1)N1CCNCC1` is recorded as roughly 30 (competition binding enrichment; live cells; 2 µM; proteins significantly competed).
`COc1ccc(OC)c(-c2nc3ccc(-c4nc5ccc(N6CCN(C)CC6)cc5[nH]4)cc3[nH]2)c1` has a growth percent of 96.4% (SRB; 10 µM, 48 h).
For `O=C(Nc1nnc2[nH]c(=S)[nH]c(-c3ccc(Cl)cc3)c1-2)c1ccccc1`, the cell growth was 97.6% (SRB; 10 µM, NCI60 single-dose screen; relative to: untreated).
For `CC1(C)CCC(CN2CCN(c3ccc(C(=O)NS(=O)(=O)c4ccc(NCC5CCOCC5)c([N+](=O)[O-])c4)c(Oc4cnc5[nH]ccc5c4)c3)CC2)=C(c2ccc(Cl)cc2)C1`, the necrotic cells was 0.2% (annexin V/PI flow cytometry, refers to: annexin V-/PI+; 3.2 µM, 24 h).
The GI50 of `COc1ccc(OCc2ccc([N+](=O)[O-])cc2)cc1-c1c[nH]c2ncc(-c3cncc(C(=O)N(C)C)c3)cc12` is reported as 0.216 µM (cell growth; hypoxia 1% O2).
`C#C[C@@]1(O)[C@@H](CO)O[C@@H](n2cc(F)c3c(N)ncnc32)[C@@H]1O` has a TGI of greater than 100 µM (SRB; NCI-60 screen).
`C=CC(=O)N1CCC[C@@H](n2nc(-c3ccc(Oc4ccccc4)cc3)c3c(N)ncnc32)C1` has an IC50 of 63 ± 8.38 µM (cell viability, MTT; 24 h).
With `Cc1cc(=O)[nH]n1-c1nc(-c2ccc(Cl)cc2)c2c(NC(=O)c3ccccc3)nnc-2[nH]1` the cell growth was 89.5% (SRB; 10 µM, NCI60 single-dose screen; relative to: untreated).
`CCCC(CCC)C(=O)OCc1cn(-c2c3ccccc3nc3ccccc23)nn1` has a growth percentage of 80.2% (NCI60 single-dose screen; 10 µM).
`C#C[C@@]1(O)[C@@H](CO)O[C@@H](n2ccc3c(N)ncnc32)[C@@H]1O` has a TGI of greater than 100 µM (SRB; NCI-60 screen).
`CCCN1CCN(c2ccc3[nH]c(-c4ccc5[nH]c(-c6cc(OC)c(OC)c(OC)c6)nc5c4)nc3c2)CC1` has a growth percent of 59.5% (SRB; 10 µM, 48 h).
For `S=C([S][Au-][P+](CCCCCC[P+]([Au-][S]C(=S)n1cccn1)(c1ccccc1)c1ccccc1)(c1ccccc1)c1ccccc1)n1cccn1`, the log10 TGI was -4.82 (cell growth, NCI-60 screen; leukemia).
`O=C(Nc1nnc2n3c(=S)[nH][nH]c3nc(-c3ccc(Cl)cc3)c1-2)c1ccccc1` gave a cell growth of 87.4% (SRB; 10 µM, NCI60 single-dose screen; relative to: untreated).
`CN1CCN(c2ccc3[nH]c(-c4ccc5[nH]c(-c6ccc(C(F)(F)F)cc6)nc5c4)nc3c2)CC1` has a growth percent of -34.2% (SRB; 10 µM, 48 h).
With `NNc1nc(-c2ccc(Cl)cc2)c2c(NC(=O)c3ccccc3)nnc-2[nH]1` the cell growth was 98.8% (SRB; 10 µM, NCI60 single-dose screen; relative to: untreated).
`O=C1NC(c2ccccc2)(c2ccccc2)C(=O)N1Cc1cn(-c2cc3ccccc3oc2=O)nn1` has a growth percentage of 92.4% (NCI60 single-dose screen; 10 µM).
The TGI of `C#C[C@@]1(O)[C@@H](CO)O[C@@H](n2cc(I)c3c(N)ncnc32)[C@@H]1O` is reported as greater than 100 µM (SRB; NCI-60 screen).
With `Cc1cc(-c2ccccc2)n(-c2nc(-c3ccc(Cl)cc3)c3c(NC(=O)c4ccccc4)nnc-3[nH]2)n1` the cell growth was 94% (SRB; 10 µM, NCI60 single-dose screen; relative to: untreated).
`CCCCN1CCN(c2ccc3[nH]c(-c4ccc5[nH]c(-c6ccc(C(F)(F)F)cc6)nc5c4)nc3c2)CC1` gave a growth percent of -65.8% (SRB; 10 µM, 48 h).
The growth percentage of `O=c1ccn(Cc2cn(-c3cc4ccccc4oc3=O)nn2)c(=O)[nH]1` is reported as 102% (NCI60 single-dose screen; 10 µM).
`Cn1cncc1C1=CN(c2ncnc3[nH]cnc23)CCS1` has a GI50 of 29.5 µM (leukemia).
Under “early apoptotic cells”, `C[C@H]1[C@@H](O)O[C@@H]2O[C@@]3(C)CC[C@H]4[C@H](C)CC[C@@H]1[C@@]24OO3` is recorded as 4.1% (annexin V/PI flow cytometry, refers to: annexin V+/PI-; 3.2 µM, 24 h).

A few entries again:
`C#C[C@@]1(O)[C@@H](CO)O[C@@H](n2cc(F)c3c(N)ncnc32)[C@@H]1O` has a TGI of greater than 100 µM (SRB; NCI-60 screen).
`CCCN1CCN(c2ccc3[nH]c(-c4ccc5[nH]c(-c6cc(OC)c(OC)c(OC)c6)nc5c4)nc3c2)CC1` has a growth percent of 59.5% (SRB; 10 µM, 48 h).
Under “number of competed kinases”, `O=C(c1ccc(/C=C/c2n[nH]c3ccccc23)cc1)N1CCNCC1` is recorded as roughly 30 (competition binding enrichment; live cells; 2 µM; proteins significantly competed).
